Published values pooled from the literature.
Parts stem from different laboratories: compare values within a part only.

Sample 1
Target: Interferon regulatory factor 5, full length, phosphomimetic (IRF5, Homo sapiens, UniProt Q13568-2, residues 1-514, S451D/S453D/S456D/S462D)
Technique: protein-binding microarray
Form: double-stranded DNA, one strand shown
Sample: in vitro
Tested at: 940 nM top
Setting: 60-bp whole probe
Together with: salmon DNA 0.4 mg/ml
Relative to: random background probes
Direction: higher = stronger binding
Constant ends, left off below: GCCTAGCAC … GTCTTGATTCGCTTGACGCTGCTG
| Oligonucleotide | fitted relative affinity [z-score] |
| --- | --- |
| GACGCTATCAGTATCGAGACGTGCTAG | 2 |
| GACGGTCTCGGACTGGGGGCGTGCTAG | 1.58 |
| TTACGTTTCGGGTATCGGTTAGTGCTA | 7.6 |
| TCATTTCTTTGCTTCACACTGTGCTAG | 1.16 |
| TTAGGTTTCGGACGGGGTTAGTGCTAG | 7.76 |
| ATATATATATATACAGATATGTGCTAG | 0.535 |
| TTAGAAGTGAGTTTCGATTAGTGCTAG | 7.91 |
| AAACCTATAGGGCCTGACTTCGTGCTA | -0.586 |

Sample 2
Target: Sal-like protein 4, full length isoform A (SALL4, Homo sapiens, UniProt Q9UJQ4, residues 1-1053)
Chain of UniProt Q9UJQ4 (whole entry, looked up): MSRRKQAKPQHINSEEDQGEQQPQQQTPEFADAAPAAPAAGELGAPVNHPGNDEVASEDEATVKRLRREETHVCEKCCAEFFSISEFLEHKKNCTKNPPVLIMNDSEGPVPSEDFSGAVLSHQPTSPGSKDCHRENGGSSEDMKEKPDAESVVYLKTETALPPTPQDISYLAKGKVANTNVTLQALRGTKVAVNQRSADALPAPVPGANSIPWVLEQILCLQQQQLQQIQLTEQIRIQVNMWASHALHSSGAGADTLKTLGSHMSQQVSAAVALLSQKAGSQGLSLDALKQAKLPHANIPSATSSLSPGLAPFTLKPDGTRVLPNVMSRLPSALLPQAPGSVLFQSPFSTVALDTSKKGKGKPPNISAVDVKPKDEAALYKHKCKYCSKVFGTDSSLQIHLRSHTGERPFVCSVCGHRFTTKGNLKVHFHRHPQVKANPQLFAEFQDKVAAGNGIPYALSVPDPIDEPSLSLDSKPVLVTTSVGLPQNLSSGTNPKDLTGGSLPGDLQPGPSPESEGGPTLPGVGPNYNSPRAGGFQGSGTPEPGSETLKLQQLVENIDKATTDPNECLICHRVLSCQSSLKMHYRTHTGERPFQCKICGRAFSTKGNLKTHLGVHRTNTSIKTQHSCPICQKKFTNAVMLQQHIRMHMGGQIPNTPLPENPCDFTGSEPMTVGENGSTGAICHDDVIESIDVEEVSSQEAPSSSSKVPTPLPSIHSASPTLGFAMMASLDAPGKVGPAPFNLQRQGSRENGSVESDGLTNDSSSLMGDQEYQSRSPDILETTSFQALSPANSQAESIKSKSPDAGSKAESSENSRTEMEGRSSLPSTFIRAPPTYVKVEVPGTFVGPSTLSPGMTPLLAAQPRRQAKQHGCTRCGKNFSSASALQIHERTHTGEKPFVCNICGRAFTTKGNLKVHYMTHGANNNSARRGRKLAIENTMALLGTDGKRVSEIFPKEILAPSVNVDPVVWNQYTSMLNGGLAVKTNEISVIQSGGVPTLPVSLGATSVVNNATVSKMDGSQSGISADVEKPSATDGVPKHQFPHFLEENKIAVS
Technique: universal PBM
Form: double-stranded DNA, one strand shown
Sample: in vitro
Tested at: 600 nM
Setting: 8-mer, flanks averaged, mean of replicates
Direction: higher = stronger binding
| Oligonucleotide | E-score |
| --- | --- |
| ATGGTCGG | -0.0955 |
| CTGGATTA | 0.184 |
| CCGAAGTA | 0.0199 |
| AGCAAGTG | -0.0159 |
| AACACTCA | 0.0499 |
| CACGTGAC | -0.0494 |
| AGCCTGGG | -0.294 |
| GCCACCGA | -0.297 |

Sample 3
Target: Replicase polyprotein 1ab, polymerase (rep, Severe acute respiratory syndrome coronavirus 2, UniProt P0DTD1)
Read-out: enzyme activity
Mode: inhibitor
Tested at: 20 µM
| SMILES | inhibition [%] |
| --- | --- |
| NCCc1ccc(O)c(O)c1 | 20.6 |
| O=C(NC(=O)c1c(F)cccc1F)Nc1cc(Cl)c(OC(F)(F)C(F)C(F)(F)F)cc1Cl (stereo not shown) | -7.06 |
| Cn1c2c(c3ccccc31)CCNCC2 | -2.53 |
| C[C@]12CC[C@@H]3c4ccc(OC(=O)c5ccccc5)cc4CC[C@H]3[C@@H]1CC[C@@H]2O | 28.8 |
| CCCCOC(=O)c1cc2c(cn1)[nH]c1ccccc12 | -2.74 |
| CC(C)(C)CC(C)(C)c1cc(Cc2cc(C(C)(C)CC(C)(C)C)cc(-n3nc4ccccc4n3)c2O)c(O)c(-n2nc3ccccc3n2)c1 | -4.75 |
| CN(C(=O)/C=C/c1ccoc1)[C@@H]1CC[C@@]2(O)[C@H]3Cc4ccc(O)c5c4[C@@]2(CCN3CC2CC2)[C@H]1O5 | -5.29 |
| CSc1ccccc1Nc1nc(N2CCNCC2)nc2c(NCC3CC3)ncnc12 | 20.7 |
| Oc1nc(O)c2cn[nH]c2n1 | -3.38 |
| COc1ccc(S(=O)(=O)N2c3ccc(Cl)cc3[C@](O)(c3ccccc3Cl)[C@@H]2C(=O)N2CCC[C@H]2C(N)=O)cc1OC | 3.8 |
| CCCc1cc(C)[nH]c(=O)c1CNC(=O)c1cc(-c2ccc(N3CCN(C(C)C)CC3)nc2)cc2c1cnn2C(C)C | -2.9 |
| CC1(C)O[C@@H]2C[C@H]3[C@@H]4CCC5=CC(=O)CC[C@]5(C)[C@@]4(F)[C@@H](O)C[C@]3(C)[C@]2(C(=O)CCl)O1 | -0.49 |
| CNC(=O)c1ccc(C)c(-n2c(C)cc(OCc3ccc(F)cc3F)c(Br)c2=O)c1 | -0.01 |
| COc1ccc2c(c1)/C(=C/c1cnc[nH]1)C(=O)N2 | 4.62 |
| CCCC(=O)c1cc(F)ccc1OCC(O)CNC(C)(C)C (stereo not shown) | -3.29 |
| N=C(N)NCCC[C@@H](NC(=O)[C@@H]1CCCN1C(=O)[C@@H]1CSSCCC(=O)N[C@@H](Cc2ccc(O)cc2)C(=O)N[C@@H](Cc2ccccc2)C(=O)N[C@@H](CCC(N)=O)C(=O)N[C@@H](CC(N)=O)C(=O)N1)C(=O)NCC(N)=O | 6.93 |
| CN(C)CCOC1=Cc2ccccc2Sc2ccc(Cl)cc21 | -1.19 |
| NC(=O)c1cnc(N[C@@H]2CCCC[C@@H]2N)nc1Nc1cccc(-n2nccn2)c1 | -2.21 |
| N#Cc1ccc2[nH]c(O)c(-c3ccc(CN4CCOCC4)cn3)c2c1 | 2.07 |
| CCCC(=O)N1CCCN(c2nc(N)c3cc(OC)c(OC)cc3n2)CC1 | 5.67 |
| Nc1ccn([C@@H]2C(F)=C(CO)[C@@H](O)[C@H]2O)c(=O)n1 | 1.58 |

Sample 4
Target: Histone acetyltransferase KAT6A, winged helix 1, GST fusion (KAT6A, Homo sapiens, UniProt Q92794, residues 1-85)
Technique: protein binding microarray
Form: double-stranded DNA, one strand shown
Sample: in vitro
Tested at: not given
Setting: 8-mer, flanks averaged, mean of 2 arrays, mostly near background
Relative to: not given
Direction: higher = stronger binding
Residues (chain): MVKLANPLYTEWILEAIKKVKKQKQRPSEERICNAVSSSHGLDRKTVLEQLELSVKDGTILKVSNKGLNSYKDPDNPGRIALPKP
| Oligonucleotide | E-score |
| --- | --- |
| ATTCCCGG | 0.195 |
| AACCTAGT | -0.117 |
| CTGGCTCC | 0.0176 |
| ATCTCGCC | 0.153 |
| AAAGTCGA | -0.149 |
| ACAAATCG | 0.0691 |
| CCTACATC | 0.0157 |
| ATAGCATG | -0.0858 |

Other studies, line by line
| Structure (SMILES) | cell line | test | test system | setting | how to read | quantity | result |
| --- | --- | --- | --- | --- | --- | --- | --- |
| C#C[C@]1(O)CC[C@H]2[C@@H]3CCc4cc(O)ccc4[C@H]3CC[C@@]21C | HEK-293T | pseudovirus infection, FDA-approved drug library screen | VSV pseudotyped with SARS-CoV-2 spike | 10 µM, 16 h | relative to: vehicle-treated | GFP-positive cells | 104% |

Excerpt of the above (sample 3):
| SMILES | inhibition [%] |
| --- | --- |
| Oc1nc(O)c2cn[nH]c2n1 | -3.38 |
| COc1ccc(S(=O)(=O)N2c3ccc(Cl)cc3[C@](O)(c3ccccc3Cl)[C@@H]2C(=O)N2CCC[C@H]2C(N)=O)cc1OC | 3.8 |
| CCCc1cc(C)[nH]c(=O)c1CNC(=O)c1cc(-c2ccc(N3CCN(C(C)C)CC3)nc2)cc2c1cnn2C(C)C | -2.9 |
| CC1(C)O[C@@H]2C[C@H]3[C@@H]4CCC5=CC(=O)CC[C@]5(C)[C@@]4(F)[C@@H](O)C[C@]3(C)[C@]2(C(=O)CCl)O1 | -0.49 |
| CNC(=O)c1ccc(C)c(-n2c(C)cc(OCc3ccc(F)cc3F)c(Br)c2=O)c1 | -0.01 |
